Published values collected from several papers.
Lines come from different studies, so protocols differ. Numbers after ± are the reported error.

Cc1cc(C)c(C#N)c(SCC(=O)c2ccccc2)n1  microsomal CLint (metabolic stability; human, liver microsomes; 0.5 µM, pH 7.4): 735 µL/min/mg
acyl ghrelin (human)  brain/serum ratio (mouse, wild type, cerebellum; intravenous, 10 min): 8.09 µL/g
COc1cccc(CN)c1O  brain concentration (mouse C57BL/6N male, brain; oral drinking water, 10 g/L/day, 1 week): 419 µM
COc1ccc2nc([S@@+]([O-])Cc3ncc(C)c(OC)c3C)[nH]c2c1  adverse events (human healthy; 40 mg, respiratory thoracic mediastinal disorders): 8%
COc1cccc(N2CCN(C3=Nc4c(F)cccc4[C@H](CC(=O)O)N3c3cc(C(F)(F)F)ccc3OC)CC2)c1  volume of distribution (UHPLC-MS/MS; healthy women, plasma; intravenous infusion, 480 mg single dose, 60 min infusion, HPβCD formulation): 86.9 ± 25.3 L
[2H]C([2H])([2H])Oc1cc2c(cc1OC([2H])([2H])[2H])C1CC(=O)C(CC(C)C)CN1CC2 (stereo not shown)  geometric mean ratio AUC0-t (refers to: total (α+β)-HTBZ; human, fasted; oral, 15 mg single dose; relative to: tetrabenazine 25 mg fasted): 114%
CC(C)C[C@H](NC(=O)[C@H](CCc1ccccc1)NC(=O)CN1CCOCC1)C(=O)N[C@@H](Cc1ccccc1)C(=O)N[C@@H](CC(C)C)C(=O)[C@@]1(C)CO1  steady-state volume of distribution (human patients, plasma; intravenous infusion 10 min, 27 mg/m^2, day 16 of cycle 1, KRd regimen): 11.7 ± 5.4 L
CCCCC1(CCCC)CN(c2ccccc2)c2cc(SC)c(OCC(=O)N[C@@H](C(=O)NCC(=O)O)c3ccccc3)cc2S(=O)(=O)C1  AUC(0-t) (human, plasma; oral, 15 mg once daily, day 14, geometric mean): 1.97 ng·h/mL
CC(C)NC[C@@H](C(=O)N1CCN(c2ncnc3c2[C@H](C)C[C@H]3O)CC1)c1ccc(Cl)cc1  t1/2 (human, Moderate hepatic function (Child-Pugh), plasma; oral, 100 mg single dose, arithmetic mean): 83.1 h
O=C1N=C(N2CCOCC2)CN1c1ccc(Cl)cc1  Tmax (beagle dog, both sexes, plasma; oral, 30 mg/kg, tablets, fasted, day 0): 2.27 h
Cc1nc2cccc(OCC(C)(C)C(=O)NC(C)C)c2c(N)c1C(=O)O  Cmax (Sprague-Dawley rat, female, plasma; oral gavage, 10 mg/kg, day 1): 34 ± 3.9 ng/mL
CC(C)c1nc(CN(C)C(=O)N[C@H](C(=O)N[C@@H](Cc2ccccc2)C[C@H](O)[C@H](Cc2ccccc2)NC(=O)OCc2cncs2)C(C)C)cs1  AUC(0-t) geometric mean (healthy men, plasma; 600 mg single dose, with: amenamevir 1200 mg): 72600 ng·h/mL
Cc1nc(Nc2ncc(C(=O)Nc3c(C)cccc3Cl)s2)cc(N2CCN(CCO)CC2)n1  concentration (C57BL/6 mouse, male, Abcc4 knock-out, spleen; oral, 10 mg/kg, 5 min): 26.7 ± 7.51 ng/g
CNC(=O)c1ccc(-c2cnc3ncc(Cc4ccc5ncccc5c4)n3n2)cc1F  Tmax (median) (human, mild hepatic impairment (Child-Pugh A), plasma; oral, 200 mg single dose): 1.25 h
CC(C)=CCC[C@](C)(O[C@@H]1O[C@H](CO)[C@@H](O)[C@H](O)[C@H]1O)[C@H]1CC[C@]2(C)[C@@H]1[C@H](O)C[C@@H]1[C@@]3(C)CC[C@H](O[C@@H]4O[C@H](CO)[C@@H](O)[C@H](O)[C@H]4O[C@@H]4O[C@H](CO)[C@@H](O)[C@H](O)[C@H]4O)C(C)(C)[C@@H]3CC[C@]12C  CL/F (Sprague Dawley rat, male, plasma; oral, 42 mg/kg, in red ginseng extract): 20 ± 3.33 mL/min/kg
CCCCCCCCCCCCCCCCCCOP(=O)([O-])OC1CC[N+](C)(C)CC1  Tmax (rhesus monkey, male, plasma; oral, 7 mg/kg, single dose, mean of 3): ~19 h
O=C1CN(/N=C/c2ccc(-c3ccc([N+](=O)[O-])cc3)o2)C(O)=N1  ALT (Sprague-Dawley rat, male, blood; oral, 100 mg/kg, 6 h): decreased
CN[C@H](CC(C)C)C(=O)N[C@H]1C(=O)N[C@@H](CC(N)=O)C(=O)N[C@H]2C(=O)N[C@H]3C(=O)N[C@H](C(=O)N[C@H](C(=O)O)c4cc(O)cc(O)c4-c4cc3ccc4O)[C@H](O)c3ccc(c(Cl)c3)Oc3cc2cc(c3O[C@@H]2O[C@H](CO)[C@@H](O)[C@H](O)[C@H]2O[C@H]2C[C@](C)(N)[C@H](O)[C@H](C)O2)Oc2ccc(cc2Cl)[C@H]1O  time above MIC (microdialysis; pig (Danish Landrace), cortical bone; iv infusion, 1000 mg over 100 min, MIC 2.0 µg/mL, with: meropenem co-administered): 139 min
NC(=O)CC[C@@H]1NC(=O)[C@H](Cc2ccccc2)NC(=O)[C@H](Cc2ccc(O)cc2)NC(=O)CCSSC[C@@H](C(=O)N2CCC[C@H]2C(=O)N[C@H](CCCN=C(N)N)C(=O)NCC(N)=O)NC(=O)[C@H](CC(N)=O)NC1=O  reinjection stability (UPLC-MS/MS; processed plasma extract; 156.23 pg/mL, 24 h): 101%
Cc1ccc2[nH]c(=O)c(CC(=O)O)c(-c3ccccc3)c2c1  pKa1 (UV-metric titration; water; 25.0 °C): 4.22 ± 0.01
O=C(O)[C@H](c1ccccc1Cl)N1CCc2sccc2C1  deviation from nominal (HPLC-MS/MS; feline EDTA plasma; 24 h, 4 °C, storage stability): -1%
CCCC[C@@H]1NC(=O)[C@@H](NC(=O)[C@H](CCC(=O)O)NC(=O)CNC(=O)CN2CCN(CC(=O)O)CCN(CC(=O)O)CCN(CC(=O)O)CC2)CCCCNC(=O)C[C@@H](C(N)=O)NC(=O)[C@H](C(C)C)NC(=O)[C@@H]2CCCN2C(=O)[C@H](CCCNC(=N)N)NC(=O)CNC(=O)[C@H](Cc2c[nH]c3ccccc23)NC(=O)[C@H](CCCNC(=N)N)NC(=O)[C@@H](Cc2ccccc2)NC(=O)[C@H](Cc2c[nH]cn2)NC(=O)[C@H](CCC(=O)O)NC1=O [indium-111 labelled]  tissue uptake (C57 mice, B16/F10 lung metastatic melanoma, heart; intravenous, 0.037 MBq, 4 h): 0.03 ± 0.01 %ID/g
CC1(C)Oc2cc3oc(=O)ccc3cc2C[C@@H]1O  plasma T.Bili level (male CD-1 mouse, plasma; oral gavage, 80 mg/kg daily, 4 weeks): 0.23 ± 0.05 mg/dL
COc1cc(/C=C/C(=O)CC(=O)/C=C/c2ccc(O)c(OC)c2)ccc1O  brain uptake ratio (I-125 label; C57BL/6J mouse, olfactory lobes; intranasal vs intraperitoneal, 10 µg/mouse IN, 100 µg/mouse IP, 24 h; relative to: intranasal over intraperitoneal): 2.11
O=C(O)C(F)(F)c1cc(F)ccc1Nc1c(Cl)cccc1Cl  remaining compound (human liver microsomes; 30 min, with: NADPH): 25 ± 0.4%
CN[C@H](CC(C)C)C(=O)N[C@H]1C(=O)N[C@@H](CC(N)=O)C(=O)N[C@H]2C(=O)N[C@H]3C(=O)N[C@H](C(=O)N[C@H](C(=O)O)c4cc(O)cc(O)c4-c4cc3ccc4O)[C@H](O)c3ccc(c(Cl)c3)Oc3cc2cc(c3O[C@@H]2O[C@H](CO)[C@@H](O)[C@H](O)[C@H]2O[C@H]2C[C@](C)(N)[C@H](O)[C@H](C)O2)Oc2ccc(cc2Cl)[C@H]1O  serum total protein (BALB/c mouse, serum; ip, dose not given): 6 ± 0.6 g/dL
CCCOc1ccc([C@H]2CNC(=O)N2c2ccc3[nH]cnc3c2)cc1  effective half-life (human volunteers fasted, plasma; oral tablet, 1800 mg single dose, day 1, geometric mean): 2.28 h
Cc1ccc(NC(=O)c2ccc(CN3CCN(C)CC3)cc2)cc1Nc1nccc(-c2cncc(-c3oncc3C)c2)n1  AUC(0-t) (Parkinson's disease patients, plasma; oral, 100 mg once daily, day 7, 7-day dosing, mean): 76600 ng·h/mL
O=c1cc(-c2ccc(O)cc2)oc2cc(O)cc(O)c12  precipitation concentration (phosphate buffer; pH 6.8, added from DMSO stock): > 1000 µM
Cn1c(-c2ccc(C(N)=O)cc2F)nnc1C(C)(C)Oc1c(F)cc(Cl)cc1F  AUC(0-inf) median (young Japanese subjects, plasma; oral, 10 mg single dose, day 1): 1310 ng·h/mL
liraglutide  plasma protein binding (equilibrium dialysis; human plasma 10% diluted; 10 nM, 4 to 5 h, pH 7.4, 37 °C, inner-outer ratio 50:1): 99.2%
Cc1ccc(N2CCN(CC(O)COc3ccccc3C(=O)CCc3ccccc3)CC2)cc1 (stereo not shown)  scaled CLint (metabolic stability; human, liver microsomes; 20 µM, pH 7.4): 37.6 mL/min/kg
NCCCC[C@@H]1NC(=O)[C@@H](Cc2c[nH]c3ccccc23)NC(=O)[C@H](c2ccccc2)NC(=O)[C@@H]2C[C@@H](OC(=O)NCCN)CN2C(=O)[C@H](Cc2ccccc2)NC(=O)[C@H](Cc2ccc(OCc3ccccc3)cc2)NC1=O  blood glucose (healthy human volunteers; subcutaneous, 200 µg, 2 h, post-prandial): 127 mg/dL
O=C(CCCCCCC(=O)Nc1ccccc1)NO  AUC(0-7 h) (patients, serum; oral, 1000 mg, cycle 1, with: flavopiridol): 40.2 µM·h
O=C1Nc2c(C(=O)O)ccnc2N(C2CC2)c2ncccc21  AUC(0-8 h) (olive baboon (Papio anubis), non-pregnant, serum; oral, 5 mg/kg of nevirapine, solution, single dose): 526 ± 6.59 ng·h/mL
COc1ccc2[nH]c([S+]([O-])Cc3ncc(C)c(OC)c3C)nc2c1 (stereo not shown)  t1/2 (UHPLC-MS/MS, noncompartmental; healthy Chinese volunteers, CYP2C19 *2/*2, plasma; oral, 20 mg single dose): 2.51 ± 0.82 h
CC(C)C[C@H](NC(=O)[C@H](CCCNC(=N)N)NC(=S)Nc1ccc(C[C@H]2CN(CC(=O)O)CCN(CC(=O)O)CCN2CC(=O)O)cc1)C(=O)N[C@@H](CC(N)=O)C(=O)N[C@H](C(=O)NCC(=O)NCC(=O)N[C@H](C(=O)N[C@@H](Cc1ccc(O)cc1)C(=O)N[C@@H](Cc1ccccc1)C(=O)N[C@@H](CC(C)C)C(=O)N[C@H](C(=O)N[C@H](C(=O)N[C@@H](CCCNC(=N)N)C(=O)N[C@@H](CCC(N)=O)C(=O)O)[C@@H](C)O)[C@@H](C)O)[C@@H](C)O)C(C)C [fluorine-18 labelled]  intact parent radiotracer (radio-HPLC; mouse (HepG2 tumour-bearing), HepG2 tumour; intravenous, 5.55 MBq, 1 h): 97.7 ± 2.51%
O=C(Cc1cccc(OC(F)(F)F)c1)Nc1ccc(CCCCc2nnc(NC(=O)Cc3ccccn3)s2)nn1  Cmin (human patients, plasma; oral, 600 mg three times daily fasted, cycle 1 day 15 steady state): 231 ng/mL
des-acyl ghrelin (human)  brain/serum ratio (mouse, Ghsr knockout, cortex; intravenous, 10 min): 6.75 µL/g
OC[C@H]1O[C@@H](c2ccc(Cl)c(Cc3ccc(O[C@H]4CCOC4)cc3)c2)[C@H](O)[C@@H](O)[C@@H]1O  plasma concentration (HPLC-MS/MS; healthy Chinese volunteers, fasting; oral, 10 mg tablet, 1.5 h): 163 ± 35.6 ng/mL
C[C@]12CC[C@@H]3c4ccc(O)cc4CC[C@H]3[C@@H]1C[C@@H](O)[C@@H]2O  median serum concentration (GC-MS; breast cancer women on NSAI, serum; vaginal, 0.03 mg, 3 h, day 0): 0.0838 ng/mL
CC[C@H](C)[C@H](NC(=O)[C@H](CC(C)C)NC(=O)[C@H](Cc1c[nH]c2ccccc12)NC(=O)[C@H](C)NC(=O)[C@@H](NC(=O)[C@H](Cc1ccccc1)NC(=O)[C@H](CC(=O)O)NC(=O)[C@H](CCCNC(=N)N)NC(=O)[C@H](C)NC(=O)[C@H](C)NC(=O)[C@H](CC(C)C)NC(=O)[C@H](C)NC(=O)[C@H](CC(=O)O)NC(=O)[C@H](CC(C)C)NC(=O)[C@@H](NC(=O)[C@@H](NC(=O)[C@H](C)NC(=O)[C@H](CC(C)C)NC(=O)[C@H](CCC(=O)O)NC(=O)[C@H](CO)NC(=O)[C@H](CO)NC(=O)[C@H](Cc1ccccc1)NC(=O)[C@@H](NC(=O)CNC(=O)[C@H](CCC(=O)O)NC(=O)CNC(=O)[C@@H](N)Cc1cnc[nH]1)[C@@H](C)O)[C@@H](C)O)[C@@H](C)CC)[C@@H](C)CC)C(=O)N[C@@H](C)C(=O)N[C@H](C(=O)N[C@@H](CCCCN)C(=O)N[C@H](C(=O)N[C@H](C(=O)N[C@@H](CC(=O)O)C(=O)N[C@@H](CCCCN)C(=O)N[C@@H](CCCCN)C(=O)N[C@@H](CCCCN)C(=O)N[C@@H](CCCCN)C(=O)N[C@@H](CCCCN)C(=O)N[C@@H](CCCCN)C(N)=O)[C@@H](C)O)[C@@H](C)CC)[C@@H](C)O  terminal half-life (healthy human subjects, plasma; subcutaneous, 5 mg once weekly, day 36 after 6 doses, steady state, mean): 3.8 h
Cc1cnc(N2CC3(CCOCC3)C2)c(C(=O)Nc2ccc(C(=O)N3CCc4cc(C(=O)Nc5c(C)cccc5F)sc4-c4ccccc43)cc2)c1  effective half-life (human, plasma; inhaled nebulised, 5 mg twice daily repeated): 12 to 24 h
CC(C)(Sc1ccncc1-c1ccc(C#N)c2ccccc12)C(=O)O  renal clearance (male, urine; oral, 15 mg, 72 h, mild renal impairment): 12.9 mL/min
CC1(C)C(=CC=C2CCCC(C=CC3=[N+](CCCCS(=O)(=O)[O-])c4ccccc4C3(C)C)=C2Cl)N(CCCCCC(=O)O)c2ccccc21  tumour fluorescence per volume (NIR fluorescence imaging; nude mouse, MCF7 xenograft; 17 nmol/mouse, 2 d; relative to: Cy7): ~8 fold
CC1=C2C[C@H]3[C@@H](CC[C@@H]4C[C@H](NS(C)(=O)=O)CC[C@@]43C)[C@@H]2CC[C@@]2(C1)O[C@@H]1C[C@H](C)CN[C@H]1[C@H]2C  Tmax (patients, plasma; oral, 130 mg daily, day 22, cycle 1): 3.13 h
O=C(c1cccnc1-c1ccncc1)N1CCC(O)(Cc2ccccc2)CC1  renal clearance (healthy human, urine; oral, 300 mg once daily, day 1, arithmetic mean): 5 mL/min
CCCC[C@H](NC(C)=O)C(=O)N[C@H]1CCC(=O)NC[C@@H](C(=O)N[C@@H](Cc2c[nH]c3ccccc23)C(N)=O)NC(=O)[C@H](CCCNC(=N)N)NC(=O)[C@@H](Cc2ccccc2)NC(=O)[C@H](Cc2c[nH]cn2)NC1=O  Cmax (CD Sprague-Dawley rat, male, plasma; subcutaneous, 1.0 mg/kg/day, day 28): 594 ng/mL
CC(=O)N[C@@H](CCCNC(=N)N)C(=O)N[C@H](C(=O)N[C@@H](CC(=O)O)C(=O)N[C@H](C(=O)N[C@@H](CCCNC(=N)N)C(=O)N[C@H](C(=O)N[C@@H](CC(=O)O)C(=O)N[C@H](C(N)=O)C(C)C)C(C)C)C(C)C)C(C)C  viscosity (rotational rheometry; 2% w/v aqueous solution; shear rate range 1-1000 s^-1): 1680 ± 43.3 Pa·s
